{"data": "Measured values collected from several papers", "note": "Each line is one published result; not all experiments were run side by side. Several values in a cell are separate wells, animals, samples, runs or records. ± gives the spread as reported."}
{"SMILES": "COC1OC(C)C(OC2OC(C)C(O)C(OC3OC(C)C(OC4OC(C)C(O)C(OC5OC(C)C(O)C(OS(=O)(=O)O)C5OS(=O)(=O)O)C4OS(=O)(=O)O)C(OS(=O)(=O)O)C3OS(=O)(=O)O)C2OS(=O)(=O)O)C(OS(=O)(=O)O)C1OS(=O)(=O)O (stereo not drawn)", "system": "human plasma", "setting": "128 µg/mL", "scale": "relative to: control", "measurement": "APTT prolongation", "result": "1.8 fold"}
{"SMILES": "COc1ccc(S(=O)(=O)N2CCc3ccccc3C2)cc1N1CCN(C(=O)c2ccc(F)cc2C(F)(F)F)CC1", "test": "CNN cell counting, item: tyrosine hydroxylase", "system": "rat, 6-OHDA lesion model, substantia nigra pars compacta", "setting": "0.3 µg/24 h", "scale": "relative to: lesioned over intact side", "measurement": "TH-immunoreactive cell ratio", "result": "16.5 ± 3.8%"}
{"SMILES": "O=CC1C(=O)Nc2ccccc21 (stereo not drawn)", "test": "HPLC-MS", "setting": "pH 10.2, together with: 50 mM N-α-acetyl-lysine", "measurement": "pseudo-first-order rate constant", "result": "0 h⁻¹"}
{"SMILES": "COC1OC(C)C(O)C(OC2OC(C)C(O)C(OC3OC(C)C(O)C(OC4OC(C)C(O)C(OC5OC(C)C(O)C(OC6OC(C)C(O)C(OC7OC(C)C(O)C(OC8OC(C)C(O)C(OS(=O)(=O)O)C8OS(=O)(=O)O)C7OS(=O)(=O)O)C6OS(=O)(=O)O)C5OS(=O)(=O)O)C4OS(=O)(=O)O)C3OS(=O)(=O)O)C2OS(=O)(=O)O)C1OS(=O)(=O)O (stereo not drawn)", "system": "human plasma", "setting": "128 µg/mL", "scale": "relative to: control", "measurement": "APTT prolongation", "result": "1.3 fold"}
{"SMILES": "COc1ccc(NC(=O)c2ccc3[nH]c(-c4ccc(N(C)C)cc4)nc3c2)cn1", "system": "Lewis lung carcinoma, mice, syngeneic graft, subcutaneous", "setting": "intraperitoneal, 50 mg/kg daily, day 10", "measurement": "tumour volume", "result": "393 mm3 and 406 mm3 and 528 mm3 and 321 mm3"}
{"SMILES": "Cc1[nH]nc2c1N=C(c1ccccc1Cl)c1cnc(N3CCOCC3)cc1N2", "system": "mouse HCC1806 TNBC xenograft", "setting": "oral, 10 mg/kg once daily", "measurement": "tumour growth inhibition", "result": "73.3%"}
{"SMILES": "COc1ccc(C(=O)CCc2cc(C(CCc3ccc(O)cc3OC)c3ccc(O)cc3)c(O)cc2OC)cc1 (racemic)", "system": "human blood", "setting": "3 µM, together with: A23187", "measurement": "arachidonic acid level", "result": "123000 ± 20500 pg/mL"}
{"SMILES": "COC1CN([C@H]2CC[C@H]([C@@]3(C)Oc4c(Cl)cc(C(=O)NCc5c(SC)cc(C)[nH]c5=O)c(C)c4O3)CC2)C1", "test": "RNA-seq, item: BTBD11 mouse homolog", "system": "mouse, HT-1376 xenograft, whole blood", "setting": "dose not given", "scale": "relative to: vehicle", "measurement": "log2 fold change", "result": 0.0495}
{"SMILES": "CCOC(=O)c1c(NC(=O)Cn2cnc([N+](=O)[O-])n2)sc2c1CCCC2", "target or system": "Trypanosoma cruzi", "test": "reporter mRNA translation, inhibitor, item: capped polyadenylated Renilla luciferase mRNA", "system": "cell-free extract", "setting": "concentration not given", "scale": "relative to: control RNA", "measurement": "relative translation", "result": "99.2%"}
{"SMILES": "CC(C)OC(=O)[C@H](CO)NCc1cc(Cl)c(OCc2cccc(-c3ccccc3)c2Br)cc1OCc1cccnc1", "system": "hPD-L1 MC-38 tumour, humanised hPD-1 C57BL/6 mouse", "setting": "oral, 2.5 mg/kg × 21", "measurement": "tumour weight", "result": "2.36 ± 1.31 g"}
{"SMILES": "COc1cc2c(NC3CCN(C(C)C)CC3)cc(N3CCOCC3)nc2cc1OCCCN1CCCC1", "test": "TMT proteomics, item: ENO1", "system": "5xFAD mouse, hippocampus", "setting": "dose not given", "scale": "relative to: untreated 5xFAD", "measurement": "log2 fold change", "result": 0.0621}
{"SMILES": "CC(=O)[O-].O.[Cu+2].[O-]c1ccc(Br)cc1C=NCCN1CCOCC1", "test": "nitric oxide scavenging", "setting": "120 µM", "measurement": "inhibition", "result": "29.3%"}
{"SMILES": "S=C(S)OC1CC2CC1C1CCCC21 (stereo not drawn)", "test": "LC-MS/MS, item: extracellular Leu-enkephalin", "system": "mouse striatal brain slices", "setting": "500 µM, 20 min, together with: 50 mM KCl", "measurement": "Leu-enkephalin concentration", "result": "83.6 pM and 2300 pM and 1280 pM and 585 pM and 1360 pM and 1150 pM and 2260 pM and 286 pM"}
{"SMILES": "CCCCCCCCCCCCCCCC(=O)OCC(CSC[C@H](N)C(=O)N[C@@H](CO)C(=O)N[C@@H](CCCCN)C(=O)N[C@@H](CCCCN)C(=O)N[C@@H](CCCCN)C(=O)N[C@@H](CCCCN)C(=O)NCCCCCC(=O)N[C@@H](CCCCN)C(=O)N[C@@H](CC(C)C)C(=O)N[C@H](C(=O)N[C@@H](Cc1ccccc1)C(=O)N[C@@H](Cc1ccccc1)C(=O)N[C@@H](Cc1ccc2ccccc2c1)C(=O)O)C(C)C)OC(=O)CCCCCCCCCCCCCCC (stereo partly drawn)", "system": "APP/PS1 mouse, cortex", "setting": "local injection, dose not given, unit not given", "scale": "relative to: injected over adjacent side", "measurement": "GFAP level", "result": "1.56 and 1.06 and 1.16 and 0.648 and 1.17 and 0.813"}
{"SMILES": "CC(CC1CC2=C(CC1(C)C)C(C)(C)CCC2)=NNC(N)=S (stereo not drawn)", "target or system": "Trypanosoma cruzi", "test": "reporter mRNA translation, inhibitor, item: capped polyadenylated Renilla luciferase mRNA", "system": "cell-free extract", "setting": "concentration not given", "scale": "relative to: control RNA", "measurement": "relative translation", "result": "107%"}
{"note": "Excerpt of the above:"}
{"SMILES": "CC(=O)[O-].O.[Cu+2].[O-]c1ccc(Br)cc1C=NCCN1CCOCC1", "test": "nitric oxide scavenging", "setting": "120 µM", "measurement": "inhibition", "result": "29.3%"}
{"SMILES": "S=C(S)OC1CC2CC1C1CCCC21 (stereo not drawn)", "test": "LC-MS/MS, item: extracellular Leu-enkephalin", "system": "mouse striatal brain slices", "setting": "500 µM, 20 min, together with: 50 mM KCl", "measurement": "Leu-enkephalin concentration", "result": "83.6 pM and 2300 pM and 1280 pM and 585 pM and 1360 pM and 1150 pM and 2260 pM and 286 pM"}
